Experimental data pooled from the literature.
Every numbered part comes from another study and shows a few of its results, in no order. Positions count from the first letter of the parent shown.

Sample 1
Target: Interferon regulatory factor 3, full length, phosphomimetic (IRF3, Homo sapiens, UniProt Q14653, residues 1-427, S386D/S396D/S398D/S402D/T404D/S405D)
UniProt Q14653, sequence (whole entry, unmodified, looked up): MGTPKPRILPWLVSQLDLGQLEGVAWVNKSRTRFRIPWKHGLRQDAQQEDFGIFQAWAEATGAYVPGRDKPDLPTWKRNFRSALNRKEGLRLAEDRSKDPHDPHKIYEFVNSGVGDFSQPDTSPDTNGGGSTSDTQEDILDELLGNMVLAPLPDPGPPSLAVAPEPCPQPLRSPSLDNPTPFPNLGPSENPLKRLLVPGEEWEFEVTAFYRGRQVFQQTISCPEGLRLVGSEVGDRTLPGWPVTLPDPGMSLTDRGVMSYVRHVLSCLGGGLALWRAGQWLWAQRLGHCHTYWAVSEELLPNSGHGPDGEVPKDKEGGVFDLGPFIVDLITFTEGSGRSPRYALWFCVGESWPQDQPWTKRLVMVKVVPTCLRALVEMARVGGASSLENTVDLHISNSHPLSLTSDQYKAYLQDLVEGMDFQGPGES
Method: protein-binding microarray
Molecule type: double-stranded DNA, one strand shown
Sample: in vitro
Tested at: 2540 nM top
Notes: 60-bp whole probe
Together with: salmon DNA 0.4 mg/ml
Reference: random background probes
Reading: higher = stronger binding
All sequences stand within: GCCTAGCAC … GTCTTGATTCGCTTGACGCTGCTG
Strand	fitted relative affinity [z-score]
TTAGAACTGGGGACTTGATTAGTGCTA	-0.888
TCACTCTTCTGCTTCCTACTGTGCTAG	1.24
GTCGGTTTCCTTTCCCTGACGTGCTAG	11.2
TTAGGATTCCTTTCCCTTTAGTGCTAG	6.63
GACAATTTCAGTCTCGAGACGTGCTAG	2.08
TTCGGTCTCCTTCTCCTTTAGTGCTAG	4.61
TTAGATTCCAGTTACGATTAGTGCTAG	2.69
CAGCCAATCAGGACTCAGGGAGTGCTA	-0.481
TTGGGACTGGACACTGGGTTAGTGCTA	-1.2
GTGACTCAGCACTTTGGCATGGTGCTA	-0.564
TGCTTCTAACAGAGGAGGTTGTGCTAG	-0.281
AAGAATCAGGGGTTTTATCCGTGCTAG	-0.675
TCAAATTTCTTTCTAATACTGTGCTAG	1.76
GACGGTATCGACTCTCGGGACGTGCTA	1.3
GCCGGACTGGGGACTGGGGACGTGCTA	-0.636
CTAGGTATCGACTTTCGGTTAGTGCTA	2.09
TTGGAACTGAGTATCGATTAGTGCTAG	-0.0534
TCACAATTCTTTTTATGACTGTGCTAG	1.27
TCACTTCTCGAGTGCCGGACTGTGCTA	1.33

Sample 2
Target: Histone acetyltransferase KAT6A, both winged helices, GST fusion (KAT6A, Homo sapiens, UniProt Q92794, residues 1-181)
Method: protein binding microarray
Molecule type: double-stranded DNA, one strand shown
Sample: in vitro
Tested at: not given
Notes: 8-mer, flanks averaged, mean of 2 arrays, mostly near background
Reference: not given
Reading: higher = stronger binding
Residues (chain): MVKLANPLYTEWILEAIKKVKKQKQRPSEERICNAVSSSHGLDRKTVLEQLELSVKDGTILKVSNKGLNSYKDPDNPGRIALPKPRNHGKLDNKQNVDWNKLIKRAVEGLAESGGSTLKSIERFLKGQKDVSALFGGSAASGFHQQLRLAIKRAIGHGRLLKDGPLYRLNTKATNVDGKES
Strand	E-score
CATGAATG	-0.0773
GATGGGTA	-0.16
TCCAGGCA	-0.132
CACGCGAC	0.146
CACCAAGA	-0.2
CCGTCCAC	0.204
ACAGCACA	-0.0345
CCTTAACA	-0.0193
GCTCCAGA	0.0201
CAGTCATG	-0.0399
AAGAACTG	-0.0722
AATGATCT	-0.102
GAGCTACA	-0.126
AGCGGCCT	0.231
AATCATTC	-0.0592
GGCCCACC	-0.0106
TCTACGAA	-0.0329
AGTTAATG	-0.209
CATCTCCA	-0.0971
CCATTAGC	-0.0382
ATGAGTCA	-0.141
ACTAGGCC	-0.0386
CCTGCTGC	-0.0189
TTTCAAAA	-0.106

Sample 3
Target: Fragile X messenger ribonucleoprotein 1, C-terminal low-complexity region (Fmr1, Mus musculus, UniProt P35922)
Method: RNA Bind-n-Seq
Molecule type: RNA
Sample: in vitro
Tested at: 200 nM
Notes: whole 134-nt RNA, ends assumed
Together with: 150 mM LiCl
Reference: input library
Reading: higher = stronger binding
Library: 7-deaza-guanosine replaces G
Strand	log2 enrichment
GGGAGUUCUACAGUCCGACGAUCACCAUGCAGGUGGGCAUAUUUGGGAAGUGGGGCAAGGGGGGGAUAGGGAGGGGGGUAACACUUUGGGAACAGGUGGUCCCAGGUCGUUUCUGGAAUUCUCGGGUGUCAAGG	1.44
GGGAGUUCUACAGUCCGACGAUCCAAGUCCUGUGCUACACAUCGUAUGUACCGAAUCGGUUUUUUUGGUGGUUUUUGGAAAGUAUUAUGUUACGCCGUUCGGAUCUGCACUUCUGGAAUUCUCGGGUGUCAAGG	-1.06
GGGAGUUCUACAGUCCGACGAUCGCAGGAAGUAAAAACAAAUGGAGAUGCUUCGGAUAGUGGCAGGGGUGGGGGUUGCUAAGGAAAGGGUGGGAUGGGAGUGGGUAAAGAGUUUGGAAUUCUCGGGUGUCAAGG	1.42
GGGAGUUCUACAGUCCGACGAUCCUGUGCUACACAUCGUAUGUACCGAAUCGGGGAAAAAAAGGAAAAAAAGGGGAAAAAAAGGAAAGUAUUAUGUUACGCCGUUCGGAUCUGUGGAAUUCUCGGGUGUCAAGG	0.0948
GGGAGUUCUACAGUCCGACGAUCCACAGACAACACGCACCCACACAGACACAGAGGGACGGGGUUGGGAUGGGGACAGGGUGCACAGCAGGGCGGGGUAGGACCCCAGCCCCUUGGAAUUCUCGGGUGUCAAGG	-1.22
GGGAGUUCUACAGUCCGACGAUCUGGGAGGUGGAUUUUGUUUAUUUUUUUUGCUCAUUUCCAGGGGUGGGAAUUUUUUUUUAAUAUGUGUCAUGAAUAAAGUUGUUUUUGAAAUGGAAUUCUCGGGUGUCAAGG	1.29
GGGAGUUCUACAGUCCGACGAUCUGGCCCUGGUGGCAUGCGGGGAGGAAGAGGUGGCCUCAUGGAUCGUGGUGGUCCCGGUGGAAUUUUCAGAGGUGGCCGUGGUGGAGACAGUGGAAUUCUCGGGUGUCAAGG	0.133
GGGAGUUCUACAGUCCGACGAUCUGGGAGGUGGAUUUUGUUUAUUUUUUUAGCUCAUUUCCAGGGGUGGGAAUAUUUUUUUAAUAUGUGUCAUGAAUAAAGUUGUUUUUGAAAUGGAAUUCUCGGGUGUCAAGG	0.184
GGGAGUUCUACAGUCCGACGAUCUUCACAGCCAGCAGGCAUUGGAAUAUGGCACCAAACUCGUUGGAGGAACCACUCCAGGGAAAGGAGGCCAGACACAUCUGGGCUUACCUGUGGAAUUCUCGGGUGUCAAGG	-0.0809
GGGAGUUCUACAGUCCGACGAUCUGUGCUACACAUCGUAUGUACCGAAUCGGGGCCCCCCCGGCCCCCCCGGGGCCCCCCCGGGGAAAGUAUUAUGUUACGCCGUUCGGAUCUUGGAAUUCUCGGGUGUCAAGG	-0.453
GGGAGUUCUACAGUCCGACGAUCCCUCAAGUCCUGUGCUACACAUCGUAUGUACCGAAUCGGUGGAAAGGAAAGGAAAGUAUUAUGUUACGCCGUUCGGAUCUGCACUUCCAGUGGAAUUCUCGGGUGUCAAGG	0.536

Sample 4
Target: CCNB3, cyclin fold, Cln2 fusion (human)
Method: yeast growth competition, sequencing
Sample: yeast
Notes: weak parent motif
Reference: not given
Reading: higher = stronger binding
Starting sequence: CDC42EP1 docking peptide (human); SLVVGKLSFDSSP
Change	normalised enrichment score
V4A	-0.0811
S1A	0.141
L7A	0.0195
S11A	0.0399
K6A	-0.02
P13A	0.323

Sample 5
Target: RNA binding protein fox-1 homolog 2, RRM domain, GST-SBP tag (RBFOX2, Homo sapiens, UniProt O43251-10, residues 100-194)
Method: RNA Bind-n-Seq
Molecule type: RNA
Sample: in vitro
Tested at: 365 nM
Notes: natural RNA segment, single round, ends assumed
Reference: no-protein control
Reading: higher = stronger binding
Construct (chain): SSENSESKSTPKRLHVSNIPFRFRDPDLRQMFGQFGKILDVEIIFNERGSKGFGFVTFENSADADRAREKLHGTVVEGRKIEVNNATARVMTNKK
Strand	RBNS enrichment (R)
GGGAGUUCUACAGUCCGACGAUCUUUACCAUCUUUCCUAUUCAUAUAUCUAUAUAGUAAAUUUCACUAGAAAAAUUCUUUUAAAAUUGACAGAAGAUAAUUUAUACCUUUUAUGGACUCUGAAGACACUUCAAUGGAAUUCUCGGGUGCCAA	0.379
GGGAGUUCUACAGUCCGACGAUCACAGUUCCACAGUUGUUGAUGUGUUUGUGUGUAUAUUCGAUUUUUAUAAAGAUGGUAGUAAGUCAAUACAUUUAUCCUGAUCUGUGUAUUAUUUGUUCACAAAUUCAAGAUGGAAUUCUCGGGUGCCAA	0.573
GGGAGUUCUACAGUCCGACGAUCGAGUAGAAGCUUCCUGUGCCUCCGGUUGCCAGGAGACAGCCUGUGCAGUUAAAUGGACCUAGAUUUUGUUUUGCACUAAAGUUUCUGUGACUUAAUAAAGUUCUGUUAACUGGAAUUCUCGGGUGCCAA	1.83
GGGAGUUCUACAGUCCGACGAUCGGGUAAGCAGUCCUGUGAGUGGCGCAUGAACGCUGGAGCUUAUUCCGCCGCCUGCCCCAGUGUGGGGGGAGAUACCUUUACCAUGAACUUACAGAAUUAAAGAUGGCCCAUGGAAUUCUCGGGUGCCAA	3.75
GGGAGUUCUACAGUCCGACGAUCGGAGACUGUAGCAAGUAAGGCUAGAGAACACUUGCUCUUUACCUAGUGGUGGCGGUCACGCUAACACGUGUGAAAGGCCUUUGGCAUUUUUUAAAAAGUGCAAUCAAUAAUGGAAUUCUCGGGUGCCAA	0.298
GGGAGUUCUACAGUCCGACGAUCAUAUGUAGAUGGCCAACCGACUUUUUAAUAUUUUGUAAAUAAAUUGGGAUUCUGUGUGUCCUCUGUGCUAGUAGUCCAGGACAGGAAUGUAAAGUCAGAAUGCGGGGCCAUGGAAUUCUCGGGUGCCAA	15.5
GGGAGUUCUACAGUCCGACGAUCUGUCACGACUUAAGAUUAGAUGAUCUCUACUGACCUCUUCUCAUAGAUUUUGUAUAAAUGAAGUGCUGGACUUUACCUGAAAGCUGCAAAAAUUAAUGGUUUAGAUAUAUUGGAAUUCUCGGGUGCCAA	0.605
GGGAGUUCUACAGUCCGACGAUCUCUCAAGAGAGGAAGGACAAAACUGUUACAAGCUGAAAUAUUUGGGGAUUUGUUUGACUUGACUAGGGAACCACAAGUUUUCAUAUAAUGCCUGAUUUAGCCCUGUGCCUUGGAAUUCUCGGGUGCCAA	0.837
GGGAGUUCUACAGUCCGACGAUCGGCGGUGUGGAUGGCUGGCCCUCAUCCUACCUGUGUCUUUAUUGCUUUGAUCACCACAGUCUCUAACUUGCUGCUUUCUCCAGAAGCCUUUUUAUGUAUGGGUUAGAAACUGGAAUUCUCGGGUGCCAA	0.656
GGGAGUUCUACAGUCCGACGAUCAGAGCAUUGUUAUUAAGGAUGCAUGACAGGAAUGUUGGCAGAACUGGAAAGUAUUAAAAAAGCAUUAUCAGACAGUCUUGAUAUUAUACAUUUUCAGAAAUAUAUUAAAAUGGAAUUCUCGGGUGCCAA	1.77
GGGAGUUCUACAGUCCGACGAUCUACAUUUUUGCACUGAAAUCUAAAGAUGUUUUAAAAAACACUUUUCACAAAAAUAGUCCUUUGUCAUUACAUUAUUUACUCAUGUGUUUGUACAUUUUUGUAUGUUAAUUUGGAAUUCUCGGGUGCCAA	0.455
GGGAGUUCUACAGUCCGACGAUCGUCAAUAUUUUCAAAUUUUUCUAGUUUCCACACACGAGGUCCUGCCUGGGGUUUGAGAAAGCCUGGUGGAGGAGUGUGGUGGUGUGAGUGGAGACUGGCUGGCAUUCCUCUGGAAUUCUCGGGUGCCAA	0.792

Mixed results
Molecule	target	test	system	conditions	scale	endpoint	value
PhoQ, residues 284 288 289 292 302 303 TYGVAM	PhoP, residues 12 14 15 18 19 VHSCL (Escherichia coli, UniProt P23836)	Sort-seq, refers to: YFP reporter	E. coli	PhoQ-PhoP variant library, together with: 10 µM Mg2+	reference: high Mg2+ state, higher = stronger signaling	fold induction	9.3

For quick reference, copied from above (sample 5):
Strand	RBNS enrichment (R)
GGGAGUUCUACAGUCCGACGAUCGGAGACUGUAGCAAGUAAGGCUAGAGAACACUUGCUCUUUACCUAGUGGUGGCGGUCACGCUAACACGUGUGAAAGGCCUUUGGCAUUUUUUAAAAAGUGCAAUCAAUAAUGGAAUUCUCGGGUGCCAA	0.298
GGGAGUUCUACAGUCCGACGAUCUACAUUUUUGCACUGAAAUCUAAAGAUGUUUUAAAAAACACUUUUCACAAAAAUAGUCCUUUGUCAUUACAUUAUUUACUCAUGUGUUUGUACAUUUUUGUAUGUUAAUUUGGAAUUCUCGGGUGCCAA	0.455
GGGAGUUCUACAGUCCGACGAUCGGGUAAGCAGUCCUGUGAGUGGCGCAUGAACGCUGGAGCUUAUUCCGCCGCCUGCCCCAGUGUGGGGGGAGAUACCUUUACCAUGAACUUACAGAAUUAAAGAUGGCCCAUGGAAUUCUCGGGUGCCAA	3.75
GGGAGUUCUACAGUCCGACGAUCACAGUUCCACAGUUGUUGAUGUGUUUGUGUGUAUAUUCGAUUUUUAUAAAGAUGGUAGUAAGUCAAUACAUUUAUCCUGAUCUGUGUAUUAUUUGUUCACAAAUUCAAGAUGGAAUUCUCGGGUGCCAA	0.573
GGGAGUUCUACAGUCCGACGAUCUGUCACGACUUAAGAUUAGAUGAUCUCUACUGACCUCUUCUCAUAGAUUUUGUAUAAAUGAAGUGCUGGACUUUACCUGAAAGCUGCAAAAAUUAAUGGUUUAGAUAUAUUGGAAUUCUCGGGUGCCAA	0.605
